Assay results from different studies.
Protocols differ between the studies behind these lines. ± gives the spread as reported.

`CNC(=O)C1CCN(c2ccccc2NC(=O)c2ccc(-c3cc(O)ccc3C)c(C)n2)CC1` has a Ki of 4.9 nM (EPHB3 (Homo sapiens, UniProt P54753); cell-free assay, TR-FRET).
For `NC(=S)N/N=C/c1ccc(OCc2cccc(F)c2)cc1`, the Ki was 74 nM (MAOB (Homo sapiens, UniProt P27338); enzyme activity, inhibitor).
`CC[C@H](C)[C@H](NC(=O)CN)C(=O)N[C@H](C(=O)N[C@@H](CC(N)=O)C(=O)N[C@H](C(=O)N[C@@H](CC(C)C)C(=O)N[C@@H](CCC(N)=O)C(=O)N[C@@H](C)C(=O)N[C@@H](Cc1ccc(O)cc1)C(=O)N[C@@H](Cc1ccc(O)cc1)C(=O)N[C@H]1CSSC[C@@H]2NC(=O)[C@H](CCCCN)NC(=O)[C@H](CCCNC(=N)N)NC(=O)CNC(=O)[C@H](CCCNC(=N)N)NC(=O)[C@H]([C@@H](C)O)NC(=O)[C@H](CO)NC(=O)[C@@H]3CSSC[C@H](NC(=O)[C@H](CCCNC(=N)N)NC(=O)CNC(=O)CNC(=O)[C@H](CCCNC(=N)N)NC(=O)[C@H](C(C)C)NC(=O)[C@H](CCCNC(=N)N)NC1=O)C(=O)N[C@@H](C)C(=O)N[C@@H](C(C)C)C(=O)N[C@@H](CC(C)C)C(=O)N[C@@H](CO)C(=O)N[C@@H](CSSC[C@@H](C(=O)N[C@@H](CCCNC(=N)N)C(=O)N[C@@H](CCCNC(=N)N)C(=O)N[C@@H](CCCCN)C(=O)N[C@@H](CCCCN)C(N)=O)NC2=O)C(=O)N[C@@H](CC(C)C)C(=O)N1CCC[C@H]1C(=O)N[C@@H](CCCCN)C(=O)N[C@@H](CCC(=O)O)C(=O)N[C@@H](CCC(=O)O)C(=O)N[C@@H](CCC(N)=O)C(=O)N[C@@H]([C@@H](C)CC)C(=O)NCC(=O)N[C@@H](CCCCN)C(=O)N3)[C@@H](C)O)[C@@H](C)CC` has a Ki of 75 nM (MC1R (Homo sapiens, UniProt Q01726); ligand displacement in cells).
`CCC(=O)c1ccc2c(c1)sc(=O)n2CCCCCN1CCCCCC1` has a Ki of 12.2 ± 1.1 nM (Sigmar1 (Rattus norvegicus, UniProt Q9R0C9); binding, radioligand binding; rat liver membranes; with: [3H](+)-pentazocine 5 nM).
`CNC(C)C(=O)NC1COC2CCC(C(=O)NCc3ccccc3)N2C1=O` (mixture of isomers) gave a Ki of 28900 nM (Baculoviral IAP repeat-containing protein 3, BIR3 (BIRC3, Homo sapiens, UniProt Q13489); ligand displacement, FP).
`CC(=O)N[C@@H](CCCNC(=N)N)C(=O)N[C@@H](Cc1ccc(O)cc1)C(=O)N[C@@H](CCCN/C(N)=N/C(=O)NCCCCN)C(=O)N[C@@H](CC(C)C)C(=O)N[C@@H](CCCNC(=N)N)C(=O)N[C@@H](Cc1ccc(O)cc1)C(N)=O` has a Ki of > 5000 nM (NPY5R (Homo sapiens, UniProt Q15761); ligand displacement, radioligand).
The Ki of `CC(=O)NCC(=O)N(C)[C@@H](Cc1ccccc1)C(=O)N[C@@H](Cc1ccccc1)C(=O)N[C@@H](Cc1ccccc1)C(=O)N[C@@H](CCCNC(=N)N)C(=O)N[C@@H](CC(C)C)C(=O)N[C@@H](CCCNC(=N)N)C(=O)N[C@@H](CCCNC(=N)N)C(=O)N[C@H](C)C(=O)N[C@@H](CCCNC(=N)N)C(=O)N1CCC[C@H]1C(=O)N[C@@H](CCCCN)C(N)=O` is reported as 8.04 nM (Oprk1 (Rattus norvegicus, UniProt P34975); ligand displacement, radioligand).
For `C=CC=CCCC1OC2CCC3(C)OC4C(O)CC5(C)OC(CCC=C(C)C(C)=CC=NNC(=O)CCCCC6SCC7NC(=O)NC76)C(C)CC5OC4CC3OC2CCC1(C)O` (stereo not shown), the Ki was 324 ± 28 nM (brevenal binding site (rat); fluorescent ligand competition; rat brain synaptosomes; with: BODIPY FL-brevenal 10 nM).
`Cc1cc2c(cc1Cl)Cc1c(C(=O)NC3CCCCC3)nn(-c3ccc(Cl)cc3Cl)c1-2` has a Ki of 875 ± 25 nM (Cnr1 (Mus musculus, UniProt P47746); binding, radioligand displacement; mouse brain homogenate without cerebellum; with: [3H]CP-55,940).
With `CC[C@H](C)[C@H](NC(=O)[C@@H]1CSCC(=O)NCC[C@H](NC(=O)[C@H](Cc2ccc(O)cc2)NC(=O)CNC(C)=O)C(=O)N[C@@H](CO)C(=O)N[C@@H](CCCNC(=N)N)C(=O)N[C@@H](CO)C(=O)N[C@@H](Cc2ccc(O)cc2)C(=O)N2CCC[C@H]2C(=O)N2CCC[C@H]2C(=O)N[C@@H](C(C)C)C(=O)N1)C(=O)N1CCC[C@H]1C(=O)N[C@@H](CC(=O)O)C(N)=O` the Ki was 57000 ± 2000 nM (Mannan-binding lectin serine protease 2 (Homo sapiens, UniProt O00187); with: 250 µM Z-L-Lys-SBzl substrate).

Some of these lines once more:
`CNC(=O)C1CCN(c2ccccc2NC(=O)c2ccc(-c3cc(O)ccc3C)c(C)n2)CC1` has a Ki of 4.9 nM (EPHB3 (Homo sapiens, UniProt P54753); cell-free assay, TR-FRET).
`CC[C@H](C)[C@H](NC(=O)CN)C(=O)N[C@H](C(=O)N[C@@H](CC(N)=O)C(=O)N[C@H](C(=O)N[C@@H](CC(C)C)C(=O)N[C@@H](CCC(N)=O)C(=O)N[C@@H](C)C(=O)N[C@@H](Cc1ccc(O)cc1)C(=O)N[C@@H](Cc1ccc(O)cc1)C(=O)N[C@H]1CSSC[C@@H]2NC(=O)[C@H](CCCCN)NC(=O)[C@H](CCCNC(=N)N)NC(=O)CNC(=O)[C@H](CCCNC(=N)N)NC(=O)[C@H]([C@@H](C)O)NC(=O)[C@H](CO)NC(=O)[C@@H]3CSSC[C@H](NC(=O)[C@H](CCCNC(=N)N)NC(=O)CNC(=O)CNC(=O)[C@H](CCCNC(=N)N)NC(=O)[C@H](C(C)C)NC(=O)[C@H](CCCNC(=N)N)NC1=O)C(=O)N[C@@H](C)C(=O)N[C@@H](C(C)C)C(=O)N[C@@H](CC(C)C)C(=O)N[C@@H](CO)C(=O)N[C@@H](CSSC[C@@H](C(=O)N[C@@H](CCCNC(=N)N)C(=O)N[C@@H](CCCNC(=N)N)C(=O)N[C@@H](CCCCN)C(=O)N[C@@H](CCCCN)C(N)=O)NC2=O)C(=O)N[C@@H](CC(C)C)C(=O)N1CCC[C@H]1C(=O)N[C@@H](CCCCN)C(=O)N[C@@H](CCC(=O)O)C(=O)N[C@@H](CCC(=O)O)C(=O)N[C@@H](CCC(N)=O)C(=O)N[C@@H]([C@@H](C)CC)C(=O)NCC(=O)N[C@@H](CCCCN)C(=O)N3)[C@@H](C)O)[C@@H](C)CC` has a Ki of 75 nM (MC1R (Homo sapiens, UniProt Q01726); ligand displacement in cells).
